Measurements pooled from the literature.
Lines come from different studies, so protocols differ. ± marks the error that the study gave. pIC50: −log10 of the molar value.
Target: Cytochrome P450 2C9 (CYP2C9, Homo sapiens, UniProt P11712)

SMILES	assay	system	conditions	quantity	value
Cc1cccc2c1C1(CCN(C(=O)c3ccc4[nH]ncc4c3)CC1)C(=O)N2CC(=O)NCC(F)(F)F	enzyme activity, inhibitor			pIC50	5.09
CCc1nnc(NS(=O)(=O)c2ccc(NC(=O)c3cccc4ccccc34)cc2)s1			10 µM	inhibition	78%
O=C(CN1C(=O)C2(CCN(C(=O)c3cnc4[nH]ncc4c3)CC2)c2c(Br)cccc21)NCC(F)(F)F	enzyme activity, inhibitor			pIC50	4.85
CN[C@@H]1[C@H](O)[C@H](NC)[C@H]2O[C@]3(O)[C@H](O[C@@H]2[C@H]1O)O[C@H](C)C[C@H]3NC(=O)Cc1ccc(Cl)cn1			10 µM	inhibition	2%
Cc1cc(-c2ccc3ccccc3c2)nnc1NCCN1CCN(C)CC1	substrate	recombinant enzyme	100 nM, 1 h	remaining compound	87%
C[C@@H](c1ccc2nccn2c1)n1nnc2nc(O)c(-c3cnn(C)c3)nc21	enzyme activity, inhibitor	human, liver microsomes		pIC50	4.96
O=C(CN1C(=O)C2(CCN(C(=O)c3cnc4[nH]ncc4c3)CC2)c2c(F)cccc21)NCC(F)(F)F	enzyme activity, inhibitor			pIC50	4.70
C[C@@H](c1ccc2nccn2c1)n1nnc2ncc(-c3cn[nH]c3)nc21		human liver microsomes	10 and 50 µM, 30 min preincubation, added: ± NADPH	time-dependent inhibition	< 20%
CCN(CC)CCOc1ccc(-c2nnn(Cc3ccc(OC)cc3)c2N)cc1	inhibitor			pIC50	< 4.30

Repeated from above:
SMILES	assay	system	conditions	quantity	value
O=C(CN1C(=O)C2(CCN(C(=O)c3cnc4[nH]ncc4c3)CC2)c2c(Br)cccc21)NCC(F)(F)F	enzyme activity, inhibitor			pIC50	4.85
